Measurements gathered from unrelated publications.
± gives the spread as reported.

With `COc1cc(-c2oc3cc(O[C@@H]4O[C@@H](C)[C@H](O)[C@@H](O)[C@H]4O)cc(O)c3c(=O)c2O[C@@H]2O[C@H](CO[C@@H]3O[C@@H](C)[C@H](O)[C@@H](O)[C@H]3O)[C@@H](O)[C@H](OC(C)=O)[C@H]2O)ccc1O` the IC50 was 27.3 ± 0.63 µM (influenza A virus; hemagglutination; A/Tern/South Africa/1/61 (H5N3)).
`COC(=O)c1ncn(CCO)c1C(=O)OC` gave an IC50 of 30 µg/mL (Mammarenavirus lassaense; viral replication, inhibitor; Vero; 48 h).
`O=C(O)CC1C2CCCN3CCCC(CN1CCc1ccc(Cl)c(Cl)c1)C23` (stereo not drawn) has an IC50 of > 200 µM (Ebola virus; viral entry; EBOV GP pseudotyped HIV).
`CN1CCN(C(=O)N[C@@H](Cc2ccccc2)C(=O)N[C@H](/C=C/S(=O)(=O)c2ccccc2)CCc2ccccc2)CC1` has an IC50 of 0.0461 ± 0.00663 µM (Middle East respiratory syndrome-related coronavirus; viral entry; Vero; pseudovirus).
For `N=C(N)NCCC[C@H](NC(=O)[C@@H](N)CO)C(=O)N[C@@H](Cc1ccc(O)cc1)C(=O)N[C@@H](Cc1ccc(O)cc1)C(=O)N1CCC[C@H]1C(=O)N[C@@H](Cc1ccccc1)C(=O)N[C@@H](Cc1ccccc1)C(=O)NCC(=O)N[C@@H](CC(=O)O)C(=O)N[C@@H](CO)C(=O)O`, the IC50 was > 80 µM (Marburg virus; pseudovirus infection; pseudotyped virus).
`CCCC1O[C@@H]2C[C@H]3[C@@H]4CCC5=CC(=O)C=C[C@]5(C)[C@H]4[C@@H](O)C[C@]3(C)[C@]2(C(=O)CO)O1` (stereo partly drawn) gave an IC50 of > 30 µM (Severe acute respiratory syndrome coronavirus 2; viral replication, inhibitor; VeroE6/TMPRSS2; 24 h).
The IC50 of `COC(=O)c1ncn(CCOC(C)=O)c1C(=O)OC` is reported as 46 µg/mL (Severe acute respiratory syndrome coronavirus; viral replication; Vero; 48 h).
`COc1cc(-c2oc3cc(O)cc(O)c3c(=O)c2O[C@@H]2O[C@H](CO)[C@@H](O)[C@H](O)[C@H]2OC(=O)c2cc(O)c(O)c(O)c2)ccc1O` gave an IC50 of 188 ± 3.8 µM (influenza A virus; hemagglutination; A/chicken/FPV/Rostock/1934 (H7N1)).
For `CC[C@H](C)[C@H](NC(=O)[C@@H](NC(=O)[C@H](CCC(N)=O)NC(=O)[C@@H](N)CO)C(C)C)C(=O)N[C@@H](CO)C(=O)N[C@@H](CC(N)=O)C(=O)N1CCC[C@H]1C(=O)N[C@@H](Cc1ccc(O)cc1)C(=O)N[C@@H](Cc1ccc(O)cc1)C(=O)N1CCC[C@H]1C(=O)N[C@@H](Cc1ccccc1)C(=O)N[C@@H](Cc1ccc(O)cc1)C(=O)N[C@@H](Cc1ccc(O)cc1)C(=O)N[C@@H](CO)C(=O)O`, the IC50 was 27.3 µM (Ebola virus; pseudovirus infection; pseudotyped virus).
`CCC(CC)COC(=O)[C@H](C)N[P@](=O)(OC[C@H]1O[C@@](C#N)(c2ccc3c(N)ncnn23)[C@H](O)[C@@H]1O)Oc1ccccc1` has an IC50 of 0.386 µM (SARS-CoV-2 BA.1; viral replication, RT-qPCR of viral RNA; Calu-3).
With `CCOP(=O)(CCOCn1cnc(C#N)c1C#N)OCC` the IC50 was 23 µg/mL (Severe acute respiratory syndrome coronavirus; viral replication; Vero; 48 h).
With `Oc1cc(O)c2c(c1)O[C@@]1(c3ccc(O)c(O)c3)Oc3cc(O)c4c(c3[C@@H]2[C@H]1O)O[C@H](c1ccc(O)c(O)c1)[C@H](O)C4` the IC50 was 121 ± 13.1 µM (HIV pseudovirus with SARS-CoV S; viral entry, inhibitor; HepG2).
With `COC(=O)CCCC1C2CCCN3CCCC(CN1Cc1ccc(Cl)c(Cl)c1)C23` (stereo not drawn) the IC50 was 5.29 µM (Ebola virus; viral entry; EBOV GP pseudotyped HIV).
The IC50 of `CC(C)[C@H](NC(=O)[C@H](Cc1ccccc1)NC(=O)[C@H](Cc1ccccc1)NC(=O)[C@H](CC(=O)O)NC(=O)[C@H](CC(=O)O)NC(=O)CNC(=O)[C@H](CCCCN)NC(=O)[C@H](CCCCN)NC(=O)[C@@H](N)Cc1c[nH]cn1)C(=O)N[C@@H](Cc1ccc(O)cc1)C(=O)N[C@@H](C)C(=O)N[C@@H](CC(=O)O)C(=O)N[C@@H](Cc1ccc(O)cc1)C(=O)O` is reported as 58.7 µM (Marburg virus; pseudovirus infection; pseudotyped virus).
`COc1cc(-c2oc3cc(O)cc(O)c3c(=O)c2O[C@@H]2O[C@H](CO)[C@@H](O)[C@H](OC(C)=O)[C@H]2O)ccc1O` has an IC50 of 40.8 ± 0.5 µM (influenza A virus; hemagglutination; A/Tern/South Africa/1/61 (H5N3)).
With `Cc1cn([C@@H]2O[C@@H](C)[C@H](OCc3ccccc3)[C@@H](OCc3ccccc3)[C@H]2I)c(=O)[nH]c1=O` the IC50 was 3.6 µM (Japanese encephalitis virus; viral replication, inhibitor, ELISA; Vero).
With `C[C@]12C=CC(=O)C=C1CC[C@@H]1[C@@H]2[C@@H](O)C[C@@]2(C)[C@H]1C[C@H]1OC(CCCCCCCCCN=[N+]=[N-])O[C@]12C(=O)CO` (stereo partly drawn) the IC50 was 6.6 µM (Severe acute respiratory syndrome coronavirus 2; viral replication; VeroE6/TMPRSS2).
`O=[N+]([O-])c1ccc(-n2nc(-c3ccc(F)cc3)cc2-c2ccc(F)cc2)c([N+](=O)[O-])c1` gave an IC50 of < 1 µM (Japanese encephalitis virus; plaque formation; N2a; 72 h).
`O=c1ccn([C@@H]2O[C@H](CO)[C@@H](O)[C@H](O)[C@H]2I)c(=O)[nH]1` gave an IC50 of > 20 µM (Japanese encephalitis virus; viral replication, inhibitor, ELISA; Vero).
The IC50 of `COc1cccc2c1C(=O)c1c(O)c3c(c(O)c1C2=O)C[C@@](O)(C(=O)CO)C[C@@H]3O[C@H]1C[C@H](N)[C@H](O)[C@H](C)O1` is reported as 0.04 µM (SARS-CoV-2 NLuc reporter; viral replication; Calu-3; 16 h compound pretreatment).
For `O=C(O)CCCC1C2CCCN3CCCC(CN1C(=O)c1ccc(Cl)cc1)C23` (stereo not drawn), the IC50 was > 200 µM (Ebola virus; viral entry; EBOV GP pseudotyped HIV).
For `NCCCC[C@H](N)C(=O)NCC(=O)N[C@@H](CC(=O)O)C(=O)N[C@@H](CC(=O)O)C(=O)N[C@@H](Cc1ccccc1)C(=O)N[C@@H](Cc1ccccc1)C(=O)N1CCC[C@H]1C(=O)N[C@@H](Cc1ccc(O)cc1)C(=O)N[C@@H](Cc1ccc(O)cc1)C(=O)N[C@@H](Cc1c[nH]cn1)C(=O)N[C@@H](CO)C(=O)O`, the IC50 was > 80 µM (Marburg virus; pseudovirus infection; pseudotyped virus).
`CCCc1ccc(-c2cccc(-c3nc4ccc5cc(C(=O)O)cc(O)c5c4[nH]3)c2)cc1` gave an IC50 of 64 µM (Mycobacterium tuberculosis; resazurin; rel knockout; 168 h, nutrient-starved).
For `COC(=O)CC1C2CCCN3CCCC(CN1C(=O)c1ccc(Cl)cc1)C23` (stereo not drawn), the IC50 was 88.2 µM (Ebola virus; viral entry; EBOV GP pseudotyped HIV).
`N#Cc1ncn(COCCO)c1C#N` gave an IC50 of 32 µg/mL (Mammarenavirus lassaense; viral replication, inhibitor; Vero; 48 h).
`COc1cc2c(cc1O)CCN[C@]21CS[C@@H]2c3c(OC(C)=O)c(C)c4c(c3[C@H](COC1=O)N1[C@@H]2[C@H]2c3c(cc(C)c(OC)c3O)C[C@@H]([C@@H]1C#N)N2C)OCO4` has an IC50 of 0.0101 µM (SARS-CoV-2 BA.1; viral replication, RT-qPCR of viral RNA; Calu-3).
For `COC(=O)c1ncn(C2CC(O)C(CO)O2)c1C(=O)OC` (stereo not drawn), the IC50 was 13 µg/mL (Mammarenavirus lassaense; viral replication, inhibitor; Vero; 48 h).
`CC(=O)OCCCCCCCCCC1O[C@@H]2C[C@H]3[C@@H]4CCC5=CC(=O)C=C[C@]5(C)[C@H]4[C@@H](O)C[C@]3(C)[C@]2(C(=O)CO)O1` (stereo partly drawn) has an IC50 of 6.7 µM (Severe acute respiratory syndrome coronavirus 2; viral replication; VeroE6/TMPRSS2).
With `COC(=O)CC1C2CCCN3CCCC(CN1Cc1ccc(Cl)cc1)C23` (stereo not drawn) the IC50 was 28.1 µM (Ebola virus; viral entry; EBOV GP pseudotyped HIV).
The IC50 of `CCOP(=O)(COCCn1cnc(C#N)c1C#N)OCC` is reported as 20 µg/mL (Severe acute respiratory syndrome coronavirus; viral replication; Vero; 48 h).
`CCCCCCCCCCCCC1O[C@@H]2C[C@H]3[C@@H]4CCC5=CC(=O)C=C[C@]5(C)[C@H]4[C@@H](O)C[C@]3(C)[C@]2(C(=O)CO)O1` (stereo partly drawn) gave an IC50 of 6.4 µM (Severe acute respiratory syndrome coronavirus 2; viral replication; VeroE6/TMPRSS2).
`Cn1cnc(Cn2c(=O)[nH]/c(=N\c3cc4cn(C)nc4cc3Cl)n(Cc3cc(F)c(F)cc3F)c2=O)n1` gave an IC50 of 48.5 µM (transmissible gastroenteritis virus; viral replication, qRT-PCR; ST; 48 h).
For `COC(=O)c1ncn(CCOP(=O)(O)O)c1C(=O)OC`, the IC50 was 25 µg/mL (Mammarenavirus lassaense; viral replication, inhibitor; Vero; 48 h).
The IC50 of `C[C@@H]1CCCN1CCc1cc2cc(-c3ccc(C#N)cc3)ccc2o1` is reported as 3.65 ± 0.79 µM (Naegleria fowleri; alamarBlue; ATCC 30808; 48 h, trophozoites).
With `O=C(O)CC1C2CCCN3CCCC(CN1S(=O)(=O)c1ccc(Cl)cc1)C23` (stereo not drawn) the IC50 was > 200 µM (Ebola virus; viral entry; EBOV GP pseudotyped HIV).
`NC(=O)c1ncn(C2OC(CO)C(O)C2O)c1C(N)=O` (stereo not drawn) gave an IC50 of 10 µg/mL (Mammarenavirus lassaense; viral replication, inhibitor; Vero; 48 h).

Repeated from above:
With `COC(=O)CC1C2CCCN3CCCC(CN1Cc1ccc(Cl)cc1)C23` (stereo not drawn) the IC50 was 28.1 µM (Ebola virus; viral entry; EBOV GP pseudotyped HIV).
With `COc1cc(-c2oc3cc(O[C@@H]4O[C@@H](C)[C@H](O)[C@@H](O)[C@H]4O)cc(O)c3c(=O)c2O[C@@H]2O[C@H](CO[C@@H]3O[C@@H](C)[C@H](O)[C@@H](O)[C@H]3O)[C@@H](O)[C@H](OC(C)=O)[C@H]2O)ccc1O` the IC50 was 27.3 ± 0.63 µM (influenza A virus; hemagglutination; A/Tern/South Africa/1/61 (H5N3)).
`O=c1ccn([C@@H]2O[C@H](CO)[C@@H](O)[C@H](O)[C@H]2I)c(=O)[nH]1` gave an IC50 of > 20 µM (Japanese encephalitis virus; viral replication, inhibitor, ELISA; Vero).
`O=[N+]([O-])c1ccc(-n2nc(-c3ccc(F)cc3)cc2-c2ccc(F)cc2)c([N+](=O)[O-])c1` gave an IC50 of < 1 µM (Japanese encephalitis virus; plaque formation; N2a; 72 h).
With `Oc1cc(O)c2c(c1)O[C@@]1(c3ccc(O)c(O)c3)Oc3cc(O)c4c(c3[C@@H]2[C@H]1O)O[C@H](c1ccc(O)c(O)c1)[C@H](O)C4` the IC50 was 121 ± 13.1 µM (HIV pseudovirus with SARS-CoV S; viral entry, inhibitor; HepG2).
With `COC(=O)CCCC1C2CCCN3CCCC(CN1Cc1ccc(Cl)c(Cl)c1)C23` (stereo not drawn) the IC50 was 5.29 µM (Ebola virus; viral entry; EBOV GP pseudotyped HIV).
